Measured values collected from several papers.
Each line is one published result; not all experiments were run side by side. ± gives the spread as reported. Values after ≈ are worked out from the molar mass of the structure shown.

The chains behind the UniProt entries cited, without tags or fusion partners.
UniProt Q8WU08, whole entry: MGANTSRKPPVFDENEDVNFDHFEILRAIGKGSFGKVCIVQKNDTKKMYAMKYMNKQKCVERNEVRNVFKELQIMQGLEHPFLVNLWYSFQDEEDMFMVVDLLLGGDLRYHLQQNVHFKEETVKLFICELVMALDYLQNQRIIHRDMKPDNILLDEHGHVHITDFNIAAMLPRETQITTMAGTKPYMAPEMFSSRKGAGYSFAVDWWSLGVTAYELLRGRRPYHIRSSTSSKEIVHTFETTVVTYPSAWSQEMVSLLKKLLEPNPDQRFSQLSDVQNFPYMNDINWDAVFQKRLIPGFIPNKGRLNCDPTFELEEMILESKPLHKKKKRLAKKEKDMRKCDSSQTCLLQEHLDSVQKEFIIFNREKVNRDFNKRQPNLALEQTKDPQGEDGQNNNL
UniProt P21802, whole entry, looked up: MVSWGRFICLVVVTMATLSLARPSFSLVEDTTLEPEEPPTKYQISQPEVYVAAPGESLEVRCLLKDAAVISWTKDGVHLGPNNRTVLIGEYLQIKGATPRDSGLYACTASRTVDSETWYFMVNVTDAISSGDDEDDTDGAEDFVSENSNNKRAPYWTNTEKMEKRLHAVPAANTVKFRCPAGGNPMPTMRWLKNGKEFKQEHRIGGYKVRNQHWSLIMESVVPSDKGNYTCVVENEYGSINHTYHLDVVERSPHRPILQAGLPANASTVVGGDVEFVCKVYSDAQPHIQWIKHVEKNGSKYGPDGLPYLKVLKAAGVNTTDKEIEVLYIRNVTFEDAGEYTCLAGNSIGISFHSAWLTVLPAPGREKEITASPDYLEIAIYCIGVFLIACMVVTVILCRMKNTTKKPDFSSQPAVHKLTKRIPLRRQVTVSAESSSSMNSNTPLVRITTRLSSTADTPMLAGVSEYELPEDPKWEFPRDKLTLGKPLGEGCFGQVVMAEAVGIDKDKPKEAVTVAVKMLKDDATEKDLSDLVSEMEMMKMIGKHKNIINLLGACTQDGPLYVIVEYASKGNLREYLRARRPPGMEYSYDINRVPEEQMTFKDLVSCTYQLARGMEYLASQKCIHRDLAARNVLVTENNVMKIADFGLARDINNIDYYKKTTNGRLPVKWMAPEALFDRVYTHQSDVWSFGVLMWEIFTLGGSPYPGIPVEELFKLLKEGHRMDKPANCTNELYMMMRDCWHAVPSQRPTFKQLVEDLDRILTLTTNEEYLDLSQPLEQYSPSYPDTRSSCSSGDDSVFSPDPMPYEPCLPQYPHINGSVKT

FC(F)(F)Oc1ccc(Oc2ccc(CNCCNC3C4CC5CC(C4)CC3C5)cc2)cc1 (centres unmarked)
MIC (Mycobacterium tuberculosis; growth; H37Rv mutant MmpL3 F644L): 9.2 µg/mL

COc1c(C)c(-c2ccc(Cc3ccccc3)cc2)nc2ccccc12
IC90 (Mycobacterium tuberculosis; growth, MABA; H37Rv; aerobic): 6.53 ± 1.11 µM

O=c1oc(-c2ccc([N+](=O)[O-])cc2)ns1
reduction in viable count (Mycobacterium tuberculosis; Erdman; 50 µM, 4 days, pH 7.4, nitric oxide non-replicating state, with: DETA-NO): 1.7 log CFU

CCN1CCN(Cc2ccc(NC(=O)c3ccc(C)c(/C=C/c4cnc5[nH]ccc5c4OC)c3)cc2C(F)(F)F)CC1
log2 fold change (Serine/threonine-protein kinase 32A, with CDC37 (STK32A, Homo sapiens, UniProt Q8WU08); inhibitor, cell-based kinome screen; 5 µM; baseline: vehicle): 0.44

COc1ccc2nc3ccc(=O)cc-3oc2c1
MIC90 (Mycobacterium tuberculosis; mc2 6206 clofazimine-resistant fbiC mutant; 7 days): 60 µM (≈ 13.6 µg/mL)

O=c1oc(-c2ccco2)ns1
reduction in viable count (Mycobacterium tuberculosis; Erdman; 50 µM, 4 days, pH 7.4, nitric oxide non-replicating state, with: DETA-NO): 2 log CFU

CC[C@@H](CO)NCCN[C@@H](CC)CO
CFU reduction (Mycobacterium tuberculosis; Erdman pFCA-luxAB, BALB/c mice, acute infection; 100 mg/kg once daily): 2 log CFU

Cn1cc([N+](=O)[O-])nc1COc1ccc2nc3ccc(=O)cc-3oc2c1
MIC90 (Mycobacterium tuberculosis; mc2 6206 clofazimine-resistant fbiC mutant; 7 days): > 256 µM

CC1(C)CCC(Cc2cc(O)c(-c3ccccc3)c(=O)[nH]2)CC1
MIC99 (Mycobacterium tuberculosis; H37Rv): 0.08 µM (≈ 0.0249 µg/mL)

COCCOc1ccc2nc3ccc(=O)cc-3oc2c1
MIC90 (Mycobacterium tuberculosis; mc2 6206 bedaquiline-resistant MmpL5 regulator mutant; 7 days): 51 µM (≈ 13.8 µg/mL)

CC#C/C(=N\OC[C@H]1COCCN1)c1ccc2ncnc(Nc3ccc(OCc4cccc(F)c4)c(Cl)c3)c2c1
inhibition (Fibroblast growth factor receptor 2 (FGFR2, Homo sapiens, UniProt P21802); kinase activity; 10 µM): -1.3%

CS(=O)(=O)NC(=O)NCc1cn(-c2ccc(Cl)cc2)nc1-c1ccncc1
MIC (Mycobacterium tuberculosis; MmpL3 G758A mutant): 1 µM

CCc1nc(N)nc(N)c1C#CCc1cc(OC)cc(-c2ccc(C(=O)O)cc2)c1
MIC (Mycobacterium tuberculosis; broth microdilution; Erdman ATCC 35801): 0.125 µg/mL

CS(=O)(=O)NC(=O)CCc1cn(-c2ccc(Br)cc2)nc1-c1ccc(Cl)cc1
MIC (Mycobacterium tuberculosis; OD600; QcrB A317T mutant): 4 µM

O=c1ccc2nc3ccc(OCc4ccccc4)cc3oc-2c1
MIC90 (Mycobacterium tuberculosis; mc2 6206 bedaquiline-resistant MmpL5 regulator mutant; 7 days): > 512 µM

CS(=O)(=O)NC(=O)NCc1cc(-c2ccc(Br)cc2)oc1-c1ccncc1
MIC (Mycobacterium tuberculosis; MmpL3 G253E mutant): 0.24 µM

CSCOc1ccc2nc3ccc(=O)cc-3oc2c1
MIC90 (Mycobacterium tuberculosis; mc2 6206 bedaquiline-resistant MmpL5 regulator mutant; 7 days): 68 µM (≈ 18.6 µg/mL)

CCc1nc(N)nc(N)c1C#C[C@@H](C)c1cc(OC)cc(-c2ccc(C(=O)O)cc2)c1
MIC (Mycobacterium tuberculosis; PAS-resistant thyX -16 C>T): 1 µg/mL

O=c1[nH]c(CC2CCCCC2)cc(O)c1-c1ccccc1
MIC50 (Mycobacterium tuberculosis; H37Rv): 0.16 µM (≈ 0.0453 µg/mL)

COCCOc1ccc2nc3ccc(=O)c(I)c-3oc2c1
MIC90 (Mycobacterium tuberculosis; mc2 6206 PA-824-resistant ddn mutant; 7 days): 60 µM (≈ 23.8 µg/mL)

A few entries again:
CCc1nc(N)nc(N)c1C#C[C@@H](C)c1cc(OC)cc(-c2ccc(C(=O)O)cc2)c1
MIC (Mycobacterium tuberculosis; PAS-resistant thyX -16 C>T): 1 µg/mL

O=c1[nH]c(CC2CCCCC2)cc(O)c1-c1ccccc1
MIC50 (Mycobacterium tuberculosis; H37Rv): 0.16 µM (≈ 0.0453 µg/mL)
